Measured values gathered from unrelated publications.
A part holds a random share of what one study measured. Several values in a cell are separate wells, animals, samples, runs or records.
Chain of UniProt P78362 (whole entry, looked up): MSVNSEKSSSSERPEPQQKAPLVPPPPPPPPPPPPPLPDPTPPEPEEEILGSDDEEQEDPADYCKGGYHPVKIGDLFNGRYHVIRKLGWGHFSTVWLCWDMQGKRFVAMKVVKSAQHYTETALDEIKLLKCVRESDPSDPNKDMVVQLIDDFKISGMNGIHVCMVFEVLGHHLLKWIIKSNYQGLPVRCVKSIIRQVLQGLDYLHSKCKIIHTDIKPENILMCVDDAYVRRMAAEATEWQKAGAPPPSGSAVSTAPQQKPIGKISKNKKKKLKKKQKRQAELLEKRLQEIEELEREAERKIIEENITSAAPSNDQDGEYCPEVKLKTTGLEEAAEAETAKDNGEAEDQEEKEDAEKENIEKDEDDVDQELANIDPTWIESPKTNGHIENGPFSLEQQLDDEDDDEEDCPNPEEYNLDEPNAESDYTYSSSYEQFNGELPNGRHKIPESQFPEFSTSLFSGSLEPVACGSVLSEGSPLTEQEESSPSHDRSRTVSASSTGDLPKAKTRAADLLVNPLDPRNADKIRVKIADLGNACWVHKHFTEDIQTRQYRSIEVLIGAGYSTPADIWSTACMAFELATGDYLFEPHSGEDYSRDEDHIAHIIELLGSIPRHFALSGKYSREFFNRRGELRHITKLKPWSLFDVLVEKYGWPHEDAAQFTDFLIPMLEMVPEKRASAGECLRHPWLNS
Chain of UniProt Q8IW41 (whole entry, looked up): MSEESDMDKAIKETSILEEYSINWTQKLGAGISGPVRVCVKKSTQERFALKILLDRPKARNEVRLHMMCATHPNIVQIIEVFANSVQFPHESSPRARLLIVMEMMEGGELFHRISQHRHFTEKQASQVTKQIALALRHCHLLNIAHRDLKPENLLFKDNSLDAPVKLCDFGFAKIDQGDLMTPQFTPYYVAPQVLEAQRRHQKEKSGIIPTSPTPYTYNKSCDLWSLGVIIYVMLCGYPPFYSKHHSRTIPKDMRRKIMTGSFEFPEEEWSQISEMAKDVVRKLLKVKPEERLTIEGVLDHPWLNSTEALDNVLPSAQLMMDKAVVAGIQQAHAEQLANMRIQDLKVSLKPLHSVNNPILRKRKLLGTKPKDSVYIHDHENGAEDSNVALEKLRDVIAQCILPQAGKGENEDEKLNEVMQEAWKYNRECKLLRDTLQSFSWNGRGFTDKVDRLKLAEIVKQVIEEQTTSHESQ
Chain of UniProt Q13237 (whole entry, looked up): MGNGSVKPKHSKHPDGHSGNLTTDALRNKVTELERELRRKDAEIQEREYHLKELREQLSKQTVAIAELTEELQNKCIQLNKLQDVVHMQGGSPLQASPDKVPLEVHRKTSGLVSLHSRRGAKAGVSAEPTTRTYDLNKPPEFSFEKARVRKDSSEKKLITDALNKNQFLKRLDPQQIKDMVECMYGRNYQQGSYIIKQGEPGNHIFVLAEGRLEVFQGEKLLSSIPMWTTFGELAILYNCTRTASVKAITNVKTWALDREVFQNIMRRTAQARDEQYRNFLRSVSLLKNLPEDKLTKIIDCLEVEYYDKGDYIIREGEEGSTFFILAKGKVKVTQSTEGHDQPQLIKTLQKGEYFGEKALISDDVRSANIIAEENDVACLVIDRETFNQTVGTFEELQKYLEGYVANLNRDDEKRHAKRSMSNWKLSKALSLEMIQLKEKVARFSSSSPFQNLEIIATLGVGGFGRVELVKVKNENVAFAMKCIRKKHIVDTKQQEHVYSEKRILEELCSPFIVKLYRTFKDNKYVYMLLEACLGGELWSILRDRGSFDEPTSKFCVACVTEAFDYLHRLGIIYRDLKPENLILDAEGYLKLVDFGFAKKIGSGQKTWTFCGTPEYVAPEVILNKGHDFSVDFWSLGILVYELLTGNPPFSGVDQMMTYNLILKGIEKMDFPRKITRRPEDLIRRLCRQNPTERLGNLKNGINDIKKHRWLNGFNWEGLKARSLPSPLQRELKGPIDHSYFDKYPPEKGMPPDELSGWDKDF

Block 1 — cell line: AsPC-1; method: in-cell ELISA
SMILES: Cc1ncsc1-c1ccc(C(CO)NC(=O)C2CC(O)CN2C(=O)C(NC(=O)c2ccc(COc3c(-c4c(C)c(F)cc5[nH]ncc45)c(C4CC4)cc4c(N5CC6CC5CN6)nc(OC5CCOCC5)nc34)cc2)C(C)C)cc1 (centres unmarked)
setting	phospho-ERK1/2 level
10 nM, individual replicates	93.4% and 92.1% and 88.2% and 94.3% and 92.6% and 94.4%
10 µM, per-experiment values	11.2% and 13.9% and 5.89%
1 nM, individual replicates	99.9% and 90.5% and 91% and 91.7% and 97.8%
300 nM, individual replicates	8.92% and 23% and 9.23% and 16.2% and 9.54% and 23.9%
100 nM, per-experiment values	34.3% and 31.4% and 53.1%
300 pM, per-experiment values	98.9% and 94.2% and 99.6%

Block 2
Structure (SMILES): CN(C1COC1)C(C)(C)/C=C(\C#N)C(=O)N1CCC[C@H]1Cn1nc(-c2ccc(Oc3ccccc3)cc2F)c2c(N)ncnc21
INSR: Insulin receptor (INSR, Homo sapiens, UniProt P06213)
Chain of UniProt P06213 (whole entry, looked up): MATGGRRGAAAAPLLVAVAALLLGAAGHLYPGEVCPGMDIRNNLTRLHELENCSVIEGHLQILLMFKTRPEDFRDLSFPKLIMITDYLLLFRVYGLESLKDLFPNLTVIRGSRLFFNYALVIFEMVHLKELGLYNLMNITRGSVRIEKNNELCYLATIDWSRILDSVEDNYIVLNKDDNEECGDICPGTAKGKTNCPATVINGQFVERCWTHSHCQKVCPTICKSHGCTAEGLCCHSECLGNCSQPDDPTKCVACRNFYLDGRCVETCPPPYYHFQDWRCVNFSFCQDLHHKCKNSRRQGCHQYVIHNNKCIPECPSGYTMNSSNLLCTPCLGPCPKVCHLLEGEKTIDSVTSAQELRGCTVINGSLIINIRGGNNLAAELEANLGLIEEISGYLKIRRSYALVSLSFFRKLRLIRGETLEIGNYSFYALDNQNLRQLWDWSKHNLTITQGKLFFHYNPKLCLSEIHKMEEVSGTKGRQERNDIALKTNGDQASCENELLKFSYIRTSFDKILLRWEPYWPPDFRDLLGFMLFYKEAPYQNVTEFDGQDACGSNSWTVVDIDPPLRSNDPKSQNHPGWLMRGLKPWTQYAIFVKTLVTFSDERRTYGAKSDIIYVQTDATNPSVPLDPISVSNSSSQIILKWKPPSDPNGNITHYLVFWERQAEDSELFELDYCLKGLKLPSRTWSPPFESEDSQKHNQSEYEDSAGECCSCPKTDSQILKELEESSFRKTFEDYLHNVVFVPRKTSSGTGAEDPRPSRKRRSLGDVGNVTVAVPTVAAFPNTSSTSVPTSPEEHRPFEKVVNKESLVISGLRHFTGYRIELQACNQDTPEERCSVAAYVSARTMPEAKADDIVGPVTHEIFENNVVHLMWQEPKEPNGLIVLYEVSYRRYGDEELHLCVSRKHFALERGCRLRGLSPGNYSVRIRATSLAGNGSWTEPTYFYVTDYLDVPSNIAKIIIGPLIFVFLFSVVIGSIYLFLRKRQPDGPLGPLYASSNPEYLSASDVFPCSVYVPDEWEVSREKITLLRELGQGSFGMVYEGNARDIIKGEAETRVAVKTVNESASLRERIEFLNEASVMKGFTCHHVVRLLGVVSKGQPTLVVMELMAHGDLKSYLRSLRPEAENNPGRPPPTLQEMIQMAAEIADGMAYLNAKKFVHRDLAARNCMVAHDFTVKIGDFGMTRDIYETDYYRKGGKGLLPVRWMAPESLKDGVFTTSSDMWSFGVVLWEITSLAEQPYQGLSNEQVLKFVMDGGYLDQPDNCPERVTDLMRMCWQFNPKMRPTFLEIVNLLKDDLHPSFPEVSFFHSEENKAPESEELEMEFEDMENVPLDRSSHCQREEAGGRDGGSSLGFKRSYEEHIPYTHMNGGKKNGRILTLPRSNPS
target	test	setting	inhibition [%]
SRPK2 (Homo sapiens, UniProt P78362)	kinase activity	0.1 µM	-4
INSR	kinase activity	1 µM	-2
MAPKAPK5 (Homo sapiens, UniProt Q8IW41)	kinase activity	1 µM	0
PRKG2 (Homo sapiens, UniProt Q13237)	kinase activity	0.1 µM	0
NDRG1		0.1 µM, mean	3
SGK1 (Homo sapiens, UniProt O00141)	kinase activity	1 µM	4
INSR	kinase activity	0.1 µM	4
DAPK1 (Homo sapiens, UniProt P53355)	kinase activity	0.1 µM	4

Block 3 — read-out: kinase activity; mode: inhibitor; method: ADP-Glo; tested at: 0.0247 µM
Target: Cyclin-dependent kinase 12, with cyclin K (CDK12, Homo sapiens, UniProt Q9NYV4)
Chain of UniProt Q9NYV4 (whole entry, looked up): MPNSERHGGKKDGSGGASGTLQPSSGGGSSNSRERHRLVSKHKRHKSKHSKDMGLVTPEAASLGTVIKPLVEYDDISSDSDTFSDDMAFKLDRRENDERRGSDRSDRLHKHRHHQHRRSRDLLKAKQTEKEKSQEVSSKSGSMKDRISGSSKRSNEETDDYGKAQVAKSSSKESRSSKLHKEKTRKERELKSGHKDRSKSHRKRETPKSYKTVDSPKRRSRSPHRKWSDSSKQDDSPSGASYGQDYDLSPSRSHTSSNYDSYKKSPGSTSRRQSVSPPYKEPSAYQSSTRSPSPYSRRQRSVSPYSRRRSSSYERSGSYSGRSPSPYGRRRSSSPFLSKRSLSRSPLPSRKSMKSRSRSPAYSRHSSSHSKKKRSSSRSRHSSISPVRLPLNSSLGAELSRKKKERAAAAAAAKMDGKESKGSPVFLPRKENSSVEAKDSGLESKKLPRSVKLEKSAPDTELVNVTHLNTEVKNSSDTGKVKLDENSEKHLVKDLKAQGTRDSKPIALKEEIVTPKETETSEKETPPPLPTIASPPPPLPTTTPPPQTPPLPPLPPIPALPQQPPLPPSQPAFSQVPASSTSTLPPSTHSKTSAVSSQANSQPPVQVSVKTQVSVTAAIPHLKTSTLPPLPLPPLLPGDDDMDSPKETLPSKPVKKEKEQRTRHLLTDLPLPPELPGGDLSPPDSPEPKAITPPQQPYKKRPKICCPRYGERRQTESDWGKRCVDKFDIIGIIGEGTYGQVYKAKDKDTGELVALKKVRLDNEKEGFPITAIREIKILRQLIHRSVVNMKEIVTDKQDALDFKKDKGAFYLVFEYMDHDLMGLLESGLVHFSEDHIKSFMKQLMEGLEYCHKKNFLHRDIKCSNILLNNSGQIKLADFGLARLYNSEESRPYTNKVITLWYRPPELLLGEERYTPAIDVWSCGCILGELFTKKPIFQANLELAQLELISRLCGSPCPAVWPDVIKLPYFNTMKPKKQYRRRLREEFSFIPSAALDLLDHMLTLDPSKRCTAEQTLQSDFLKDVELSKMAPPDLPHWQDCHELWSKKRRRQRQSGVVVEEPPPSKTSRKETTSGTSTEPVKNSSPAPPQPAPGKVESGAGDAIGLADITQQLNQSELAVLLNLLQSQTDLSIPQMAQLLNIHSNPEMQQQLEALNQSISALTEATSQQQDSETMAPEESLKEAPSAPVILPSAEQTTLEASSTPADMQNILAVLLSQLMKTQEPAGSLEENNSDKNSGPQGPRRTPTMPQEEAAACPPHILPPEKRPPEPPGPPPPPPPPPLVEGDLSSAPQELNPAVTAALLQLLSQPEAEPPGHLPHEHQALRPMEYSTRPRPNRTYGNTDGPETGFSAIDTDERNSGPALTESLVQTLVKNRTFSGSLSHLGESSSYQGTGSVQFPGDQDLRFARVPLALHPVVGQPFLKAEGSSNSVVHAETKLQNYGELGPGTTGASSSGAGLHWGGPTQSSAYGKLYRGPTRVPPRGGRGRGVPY
SMILES	inhibition [%]
Cn1cc(-n2cnc3c(NCc4nc5cc(Cl)c(Cl)cc5[nH]4)nc(N4CCNCC4)nc32)cn1	-6.4
CCn1cnc2c(NCc3nc4cc(F)c(F)cc4[nH]3)nc(N3CCn4ncnc4C3)nc21	19.6
CCn1cnc2c(NCc3nc4cc(Cl)c(Cl)cc4[nH]3)nc(N3CCN(C(=O)c4ccncc4)CC3)nc21	28.4
CCn1cnc2c(NCc3nc4cc(Cl)c(Cl)cc4[nH]3)nc(N3CCN(C(C)=O)CC3)nc21	22
CCn1cnc2c(NCc3nc4cc(Cl)c(Cl)cc4[nH]3)nc(N3CCN(C(=O)c4ccccn4)CC3)nc21	9.4
CCn1cnc2c(NCc3nc4cc(Cl)c(Cl)cc4[nH]3)nc(N3CCN(S(C)(=O)=O)CC3)nc21	8.1
CCn1cnc2c(NCc3nc4cc(Cl)c(Cl)cc4[nH]3)nc(N3CCN(c4ccccn4)CC3)nc21	14.2
CCn1cnc2c(NCc3nc4cc(Cl)c(Cl)cc4[nH]3)nc(N3CCN(C(=O)[C@H](C)NC(C)=O)CC3)nc21	-14.7

Other studies, line by line
SMILES	system	setting	quantity	result
Cn1cc(-c2cccc(CN3CCC4(CC3)COc3c4ccc4c3CN([C@H]3CCC(=O)NC3=O)C4=O)c2)cn1	cynomolgus monkey, plasma	oral, 3.02 mg/kg	bioavailability	50.1%

For quick reference, copied from above (block 1):
setting	phospho-ERK1/2 level
10 µM, per-experiment values	11.2% and 13.9% and 5.89%
300 pM, per-experiment values	98.9% and 94.2% and 99.6%
100 nM, per-experiment values	34.3% and 31.4% and 53.1%
